Assay results collected from several papers.
Compare with care: the assays were run in different laboratories. Values joined by “and” are separate records of one study, mostly repeats; a detail may differ. Numbers after ± are the reported error. Converted amounts (≈) assume the structure as drawn.

With `C/C(=C\C=C\[C@]1(C)[C@@H](O)CC[C@@]2(C)[C@H]1CC[C@H]1Cc3c([nH]c4cc5c(cc34)C3=CC(C)(C)OC(C)(C)[C@H]3C5)[C@@]12C)C(=O)O` the motility was 38 ± 11% (Brugia malayi; adult male worms; 10 µM, 144 h).
For `Cn1c(=O)ccc2ccc(F)c(CCNC[C@H]3CN(c4cnc5c(n4)NC(=O)CO5)C(=O)O3)c21`, the MIC90 was < 0.015 µg/mL (Neisseria gonorrhoeae).
`COC(=O)N[C@H](C(=O)N1CCC[C@H]1c1ncc(-c2ccc(-c3ccc(-c4cnc([C@@H]5CCCN5C(=O)[C@@H](NC(=O)OC)C(C)C)[nH]4)cc3)cc2)[nH]1)C(C)C` gave a combination index of 0.9 (Hepatitis C virus; replicon cells; 75% effect level, added: NS5B palm site II inhibitor, ratio 1:1).
`Cl.N/C(CC(O)c1cc2c(F)cc(F)cc2c2cc(C(F)(F)F)ccc12)=N\c1ccc(F)cc1` (stereo not shown): “mean survival time” 28 days (Plasmodium berghei; Peters test; ANKA, mice; oral, 4 x 10 mg/kg).
`CCc1c([N+](=O)[O-])oc2ccc3ccccc3c12` has an MIC90 of 0.0625 µg/mL (≈ 0.259 µM) (Mycobacterium marinum; REMA; ATCC BAA-535).
The FICI of `N=C(N)c1ccc(OCc2ccc(Br)cc2COc2ccc(C(=N)N)cc2)cc1` is reported as ≤ 0.039 (Escherichia coli; checkerboard; BW25113 mcr-1 plasmid; unit not given, added: rifampicin; lower = stronger synergy).
`CS(=O)(=O)CCCn1c(Cn2c(=O)n(CC(F)(F)F)c3ccncc32)cc2cc(Cl)ccc21` — result for “LS mean viral load change”: -3.96 log10 copies/mL (respiratory syncytial virus; RT-qPCR; hospitalized infants 1-24 months, nasal swab; oral, 9, 6 or 5 mg/kg daily, day 7, high dose by age cohort; baseline: baseline).
`CC[C@H](C)[C@H](NC(=O)[C@H](C)NC(=O)[C@H](CCCCN)NC(=O)[C@H](CC(C)C)NC(=O)[C@H](C)NC(=O)[C@@H](NC(=O)[C@H](Cc1c[nH]cn1)NC(=O)[C@H](CC(C)C)NC(=O)[C@@H](NC(=O)[C@@H](NC(=O)[C@H](CCCCN)NC(=O)[C@H](C)NC(=O)[C@H](C)NC(=O)[C@H](CO)NC(=O)[C@H](CCCCN)NC(=O)[C@H](Cc1ccccc1)NC(=O)[C@@H](NC(=O)[C@H](CCCCN)NC(=O)[C@H](CC(C)C)NC(=O)[C@H](Cc1ccccc1)NC(=O)[C@H](CO)NC(=O)[C@H](CCCCN)NC(=O)[C@H](Cc1c[nH]c2ccccc12)NC(=O)[C@H](CCCCN)NC(C)=O)[C@@H](C)O)[C@@H](C)O)C(C)C)[C@@H](C)O)C(=O)N[C@@H](CO)C(=O)N[C@@H](CO)C(N)=O` gave an MIC90 of 8 µg/mL (≈ 2.73 µM) (Staphylococcus aureus; ATCC 29213).
With `Cn1cc(NC(=O)c2cc(NC(=O)CN=C(N)N)cn2C)cc1C(=O)NCCC(=N)N` the cell perimeter was 7.24 µm and 7.8 µm and 7.45 µm (Bacillus subtilis; bacterial cytological profiling; ATCC 6633; concentration not given).
For `C[C@H]1COCCN1c1nc(NCc2cccnc2C(F)(F)F)c2cccnc2n1`, “minimum microfilaria count” read 0 microfilariae per mouse (Brugia malayi; SCID mouse, peritoneal cavity; dose not given, 6 weeks post-treatment, dosing x14d).
For `COc1ccc2c(ccc3oc([N+](=O)[O-])c(C)c32)c1`, the MIC90 was 0.016 µg/mL (≈ 0.0622 µM) (Mycobacterium marinum; REMA; ATCC BAA-535).
`Cl.N=C(CC(O)c1cc2c(F)cc(F)cc2c2cc(C(F)(F)F)ccc12)Nc1ccc(F)c(F)c1` (stereo not shown) — result for “mean survival time”: 28 days (Plasmodium berghei; Peters test; ANKA, mice; oral, 4 x 30 mg/kg).
The inhibition of `O=C(NNc1cc(F)ccc1F)c1nnc(C23CC4CC(CC(C4)C2)C3)o1` is reported as 100% (Botryosphaeria dothidea; fungal growth, inhibitor; 50 µg/mL).

Excerpt of the above:
For `C[C@H]1COCCN1c1nc(NCc2cccnc2C(F)(F)F)c2cccnc2n1`, “minimum microfilaria count” read 0 microfilariae per mouse (Brugia malayi; SCID mouse, peritoneal cavity; dose not given, 6 weeks post-treatment, dosing x14d).
